Experimental data from different studies.
± gives the spread as reported.
HDAC1: Histone deacetylase 1 (HDAC1, Homo sapiens, UniProt Q13547)
Chain of UniProt Q13547 (whole entry, looked up): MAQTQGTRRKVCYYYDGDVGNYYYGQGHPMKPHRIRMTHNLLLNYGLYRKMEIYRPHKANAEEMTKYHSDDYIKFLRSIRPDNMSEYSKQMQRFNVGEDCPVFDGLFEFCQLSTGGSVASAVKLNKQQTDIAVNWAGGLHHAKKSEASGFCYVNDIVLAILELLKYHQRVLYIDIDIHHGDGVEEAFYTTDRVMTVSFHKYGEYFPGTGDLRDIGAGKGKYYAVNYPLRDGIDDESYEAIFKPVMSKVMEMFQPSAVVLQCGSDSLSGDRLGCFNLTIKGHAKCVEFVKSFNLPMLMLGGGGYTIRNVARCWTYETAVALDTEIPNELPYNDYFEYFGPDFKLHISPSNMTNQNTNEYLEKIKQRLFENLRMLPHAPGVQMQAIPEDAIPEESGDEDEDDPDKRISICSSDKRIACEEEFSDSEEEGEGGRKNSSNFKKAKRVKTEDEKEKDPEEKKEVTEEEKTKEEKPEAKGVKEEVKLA
CTSL: Procathepsin L (CTSL, Homo sapiens, UniProt P07711)
Chain of UniProt P07711 (whole entry, looked up): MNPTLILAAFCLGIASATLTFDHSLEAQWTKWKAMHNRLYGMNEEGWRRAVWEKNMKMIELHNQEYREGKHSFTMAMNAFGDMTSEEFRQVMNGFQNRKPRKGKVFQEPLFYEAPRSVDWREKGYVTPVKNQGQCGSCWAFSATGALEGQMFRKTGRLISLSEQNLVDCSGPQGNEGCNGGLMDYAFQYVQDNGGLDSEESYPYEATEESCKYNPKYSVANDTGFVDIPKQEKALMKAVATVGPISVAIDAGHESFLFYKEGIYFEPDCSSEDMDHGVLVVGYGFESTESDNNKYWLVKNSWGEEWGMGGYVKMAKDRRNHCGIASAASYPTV
Chain of UniProt P25105 (whole entry, looked up): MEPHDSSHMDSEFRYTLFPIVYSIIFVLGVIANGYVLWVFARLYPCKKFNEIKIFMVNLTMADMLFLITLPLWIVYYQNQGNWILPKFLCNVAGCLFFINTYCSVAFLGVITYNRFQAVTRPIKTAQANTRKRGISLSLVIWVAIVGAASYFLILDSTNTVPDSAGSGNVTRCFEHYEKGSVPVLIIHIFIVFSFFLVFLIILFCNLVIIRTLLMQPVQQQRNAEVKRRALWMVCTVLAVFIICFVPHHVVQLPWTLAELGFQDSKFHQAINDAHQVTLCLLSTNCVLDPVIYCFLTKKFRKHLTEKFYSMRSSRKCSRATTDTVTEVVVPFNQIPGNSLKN
Chain of UniProt P51531 (whole entry, looked up): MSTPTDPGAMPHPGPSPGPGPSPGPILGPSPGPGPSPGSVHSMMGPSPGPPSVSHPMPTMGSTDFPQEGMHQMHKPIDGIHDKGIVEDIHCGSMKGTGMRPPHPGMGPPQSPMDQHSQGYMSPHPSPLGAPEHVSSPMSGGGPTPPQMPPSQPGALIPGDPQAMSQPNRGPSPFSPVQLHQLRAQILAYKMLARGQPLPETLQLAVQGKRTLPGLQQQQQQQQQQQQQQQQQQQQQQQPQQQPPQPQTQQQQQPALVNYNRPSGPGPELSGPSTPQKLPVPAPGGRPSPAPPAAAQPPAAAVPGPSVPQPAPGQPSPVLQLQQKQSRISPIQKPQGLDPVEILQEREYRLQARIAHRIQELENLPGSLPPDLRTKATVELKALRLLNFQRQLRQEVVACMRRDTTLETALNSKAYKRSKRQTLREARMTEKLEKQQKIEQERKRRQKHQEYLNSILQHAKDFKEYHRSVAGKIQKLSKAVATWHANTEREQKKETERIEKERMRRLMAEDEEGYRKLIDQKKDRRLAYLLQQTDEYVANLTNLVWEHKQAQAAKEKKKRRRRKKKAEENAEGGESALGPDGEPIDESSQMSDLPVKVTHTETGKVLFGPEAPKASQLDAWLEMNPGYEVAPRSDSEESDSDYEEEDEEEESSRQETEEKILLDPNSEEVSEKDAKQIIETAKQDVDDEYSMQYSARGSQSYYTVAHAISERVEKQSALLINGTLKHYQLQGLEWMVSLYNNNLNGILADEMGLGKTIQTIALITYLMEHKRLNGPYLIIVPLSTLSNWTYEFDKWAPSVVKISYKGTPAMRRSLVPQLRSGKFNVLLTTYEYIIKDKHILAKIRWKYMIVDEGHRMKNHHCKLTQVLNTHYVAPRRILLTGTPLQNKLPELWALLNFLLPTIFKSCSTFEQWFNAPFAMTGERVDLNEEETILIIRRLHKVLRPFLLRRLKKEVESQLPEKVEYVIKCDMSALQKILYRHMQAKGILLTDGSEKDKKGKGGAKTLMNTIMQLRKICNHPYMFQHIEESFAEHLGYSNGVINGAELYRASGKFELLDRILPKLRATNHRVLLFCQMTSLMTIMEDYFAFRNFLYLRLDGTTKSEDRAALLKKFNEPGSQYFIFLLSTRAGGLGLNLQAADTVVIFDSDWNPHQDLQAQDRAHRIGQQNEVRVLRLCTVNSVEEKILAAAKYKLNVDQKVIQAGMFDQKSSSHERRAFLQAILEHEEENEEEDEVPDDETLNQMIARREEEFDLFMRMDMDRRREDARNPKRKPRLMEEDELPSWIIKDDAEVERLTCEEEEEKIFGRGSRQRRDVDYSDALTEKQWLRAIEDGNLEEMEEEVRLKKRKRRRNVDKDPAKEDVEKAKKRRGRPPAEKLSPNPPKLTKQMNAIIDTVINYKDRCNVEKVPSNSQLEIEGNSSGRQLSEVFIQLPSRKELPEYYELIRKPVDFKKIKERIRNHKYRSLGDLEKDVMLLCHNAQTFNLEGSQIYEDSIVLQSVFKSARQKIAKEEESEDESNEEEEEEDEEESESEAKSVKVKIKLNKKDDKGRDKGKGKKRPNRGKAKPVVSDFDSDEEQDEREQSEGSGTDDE
Chain of UniProt O43463 (whole entry, looked up): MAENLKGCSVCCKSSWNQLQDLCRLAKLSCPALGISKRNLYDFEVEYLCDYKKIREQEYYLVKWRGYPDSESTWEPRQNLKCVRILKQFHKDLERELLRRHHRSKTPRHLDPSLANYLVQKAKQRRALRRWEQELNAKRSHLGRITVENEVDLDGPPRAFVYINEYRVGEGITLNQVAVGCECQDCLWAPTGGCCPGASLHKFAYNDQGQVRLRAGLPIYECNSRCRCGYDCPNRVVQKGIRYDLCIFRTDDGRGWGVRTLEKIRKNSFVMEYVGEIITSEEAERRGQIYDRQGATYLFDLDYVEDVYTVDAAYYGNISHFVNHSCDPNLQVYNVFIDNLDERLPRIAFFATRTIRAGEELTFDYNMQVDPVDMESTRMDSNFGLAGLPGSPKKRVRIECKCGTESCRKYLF
Chain of UniProt P48145 (whole entry, looked up): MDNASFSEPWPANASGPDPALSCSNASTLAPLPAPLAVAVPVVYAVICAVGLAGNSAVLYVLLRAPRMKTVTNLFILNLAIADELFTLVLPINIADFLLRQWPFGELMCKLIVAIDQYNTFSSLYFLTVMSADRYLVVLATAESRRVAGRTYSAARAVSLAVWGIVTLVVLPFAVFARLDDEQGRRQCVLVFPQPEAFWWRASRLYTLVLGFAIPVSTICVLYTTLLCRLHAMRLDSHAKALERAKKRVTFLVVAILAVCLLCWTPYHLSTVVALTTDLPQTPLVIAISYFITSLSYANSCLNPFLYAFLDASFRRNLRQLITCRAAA
Chain of UniProt P37231 (whole entry, looked up): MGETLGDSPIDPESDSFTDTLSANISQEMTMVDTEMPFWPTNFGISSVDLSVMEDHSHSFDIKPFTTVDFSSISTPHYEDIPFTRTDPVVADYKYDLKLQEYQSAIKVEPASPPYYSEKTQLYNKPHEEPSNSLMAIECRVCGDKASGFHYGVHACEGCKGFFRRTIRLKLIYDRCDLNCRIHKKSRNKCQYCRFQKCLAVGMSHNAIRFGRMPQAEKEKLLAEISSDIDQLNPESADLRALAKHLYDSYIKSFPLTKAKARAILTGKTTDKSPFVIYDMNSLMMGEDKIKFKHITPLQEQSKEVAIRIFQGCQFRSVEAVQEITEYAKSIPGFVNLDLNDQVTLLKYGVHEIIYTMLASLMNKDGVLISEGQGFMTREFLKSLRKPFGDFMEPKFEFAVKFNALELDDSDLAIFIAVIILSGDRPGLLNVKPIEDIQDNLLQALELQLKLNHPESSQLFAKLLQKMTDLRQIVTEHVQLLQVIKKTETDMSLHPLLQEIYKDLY
Chain of UniProt O08914 (whole entry, looked up): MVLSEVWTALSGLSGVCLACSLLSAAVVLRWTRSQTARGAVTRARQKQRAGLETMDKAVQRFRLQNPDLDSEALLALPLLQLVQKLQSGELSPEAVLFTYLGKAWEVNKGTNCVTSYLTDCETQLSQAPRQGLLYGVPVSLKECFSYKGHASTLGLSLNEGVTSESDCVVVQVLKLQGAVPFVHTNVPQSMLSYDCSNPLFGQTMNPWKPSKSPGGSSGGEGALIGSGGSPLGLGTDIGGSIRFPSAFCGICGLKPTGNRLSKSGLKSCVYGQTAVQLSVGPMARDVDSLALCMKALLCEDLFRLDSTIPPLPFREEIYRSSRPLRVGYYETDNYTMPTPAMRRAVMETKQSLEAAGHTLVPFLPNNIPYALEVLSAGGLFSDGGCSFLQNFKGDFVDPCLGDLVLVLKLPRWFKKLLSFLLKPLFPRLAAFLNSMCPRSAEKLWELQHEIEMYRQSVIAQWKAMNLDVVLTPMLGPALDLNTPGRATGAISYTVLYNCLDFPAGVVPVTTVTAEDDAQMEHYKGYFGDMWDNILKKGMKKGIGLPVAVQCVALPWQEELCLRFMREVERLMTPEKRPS
Chain of UniProt Q8IZL9 (whole entry, looked up): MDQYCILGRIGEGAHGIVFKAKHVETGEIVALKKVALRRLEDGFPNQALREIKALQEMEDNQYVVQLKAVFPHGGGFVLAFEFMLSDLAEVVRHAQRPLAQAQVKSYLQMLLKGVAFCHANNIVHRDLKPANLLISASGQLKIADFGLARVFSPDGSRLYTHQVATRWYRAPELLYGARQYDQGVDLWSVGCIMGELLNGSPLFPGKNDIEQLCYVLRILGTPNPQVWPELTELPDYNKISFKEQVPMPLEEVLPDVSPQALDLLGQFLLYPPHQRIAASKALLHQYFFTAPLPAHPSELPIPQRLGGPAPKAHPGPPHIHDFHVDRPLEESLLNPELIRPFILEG

For `Brc1ccccc1-c1nnc(CSc2nnnn2-c2ccccc2)o1`, the inhibition was -7% (sigma receptor 2; radioligand binding; 10 µM).
For `CC(C)C[C@H](NC(=O)CNC(=O)[C@H](C)NC(=O)[C@H](C)NC(=O)[C@H](CCCNC(=N)N)NC(=O)CNC(=O)CCCCNC(=O)CCCCNC(=O)CCCCNC(=O)[C@H](CCCCN)NC(=O)[C@H](C)NC(=O)[C@@H](N)Cc1c[nH]c2ccccc12)C(=O)N[C@@H](CC(C)C)C(=O)N[C@@H](CO)C(N)=O`, the inhibition was 95% (NPBWR1 (Homo sapiens, UniProt P48145); calcium signal, antagonist; 10 µM).
The inhibition of `CN(C)C/C=C/C(=O)Nc1ccc2nc(NCCCCCN(C)C)nc(NCCCCCCN(C)C)c2c1` is reported as 76% (SUV39H1 (Homo sapiens, UniProt O43463); enzyme activity, inhibitor, radiometric; 50 µM).
`Cc1c(COc2cc(OCc3cccc(C#N)c3)c(CNC(CO)(CO)CO)cc2Cl)cccc1-c1cccc(OCCCCCC(=O)NO)c1` has an inhibition of 71.3% (HDAC1; enzyme activity, inhibitor; 1 µM).
`CS(=O)(=O)Nc1cccc(-c2csc3cnc(Nc4ccc(N5CCN(CCCCCOc6cccc7c6C(=O)N(C6CCC(=O)NC6=O)C7=O)CC5)cc4)nc23)c1` (stereo not shown) has an inhibition of 13.4% (CDK20 (Homo sapiens, UniProt Q8IZL9); probe labelling, inhibitor, KiNativ chemoproteomics; MOLT-4; 1 µM).
The inhibition of `O=C(NO)c1cccc(OS(=O)(=O)Oc2cccc([N+](=O)[O-])c2)c1` is reported as 51% (HDAC1; enzyme activity, inhibitor, fluorescence; 5 µM).
With `Cc1ccc(CNC(=O)C(CCc2ccccc2)NC(=O)C(NC(=O)c2ccc(OCc3ccc(C(C)(C)C)cc3)cc2)C(C)O)cc1` (stereo not shown) the inhibition was 4% (CTSL; enzyme activity, inhibitor; 100 µM).
The inhibition of `C[Si](C)(C)C[C@H](CN)CC(=O)O` is reported as -15% (GABA transporter, rat; binding, radioligand binding; 250 µM, added: [3H]GABA).
`O=C1c2sc(-c3ccc(N4CCC(CO)CC4)nc3F)nc2CCN1c1cccnc1` gave an inhibition of -12% (PPARG (Homo sapiens, UniProt P37231); ligand displacement, radioligand; 1 µM).
`CCn1cc(-c2cccc(C(F)(F)F)c2)c2sc(C(=N)NC3CCS(=O)(=O)CC3)cc2c1=O` gave an inhibition of -8.65% (SMARCA2 (Homo sapiens, UniProt P51531); 1 µM).
The inhibition of `CC(=O)NCCCC[C@H](NC(=O)[C@H](CCCNC(=N)N)NC(=O)[C@@H]1CCCN1C(=O)[C@H](C)NC(=O)[C@@H](N)CCCCN)C(=O)N[C@@H](CCC(N)=O)C(=O)N[C@@H](CC(C)C)C(=O)N[C@@H](C)C(=O)N[C@H](C(=O)N[C@@H](CCCCN)C(=O)N[C@@H](C)C(=O)N[C@@H](C)C(=O)N[C@@H](CCCNC(=N)N)C(=O)N[C@@H](CCCCN)C(=O)N[C@@H](CO)C(=O)N[C@@H](C)C(=O)N1CCC[C@H]1C(=O)N[C@@H](C)C(=O)O)[C@@H](C)O` is reported as 68.7 ± 0.2% (CTSL; enzyme activity, inhibitor; 25 µM, pH 6.0, 25 °C, added: Z-LR-Mca at 0.16 x Km).
The inhibition of `Cc1c(COc2cc(OCc3cccc(C#N)c3)c(CN3CCCC[C@H]3C(=O)O)cc2Cl)cccc1-c1cccc(OCCCCCCC(=O)NO)c1` is reported as 81.4% (HDAC1; enzyme activity, inhibitor; 1 µM).
With `CN(Cc1ccc(/C=C/C(=O)NO)cc1)CC12CC3CC(CC(C3)C1)C2` the inhibition was -4% (human M5 receptor; antagonist radioligand binding; 0.05 µM).
`Cn1ccc2cc(-n3c(=O)[nH]c4sc5c(c4c3=O)CCCC5)ccc21` has an inhibition of -13% (PTAFR (Homo sapiens, UniProt P25105); ligand displacement, radioligand; 10 µM).
`COCC(=O)N1CCc2cc(-c3csc(NC(=O)c4cc(OC)cc(OC)c4)n3)ccc21` gave an inhibition of 32% (Slc6a1 (Rattus norvegicus, UniProt P23978); ligand displacement, radioligand; 10 µM).
The inhibition of `C=CCN(CC=C)C(=O)n1ccnn1` is reported as over 95% (Faah (Mus musculus, UniProt O08914); serine hydrolase activity, inhibitor, competitive gel-based ABPP; mouse T-cell proteome; 1 µM, 30 min, 37 °C).
